Experimental data from different studies.
Numbered parts are unrelated; each lists some results of a single study. Positions count from the first letter of the parent shown.

Study 1
Target: CCNA1, cyclin fold, Cln2 fusion (human)
Technique: yeast growth competition, sequencing
Medium: yeast
Notes: weak parent motif
Relative to: not given
Direction: higher = stronger binding
Starting sequence: RB1 docking peptide (human); PKPLKKLRFDIEG; partner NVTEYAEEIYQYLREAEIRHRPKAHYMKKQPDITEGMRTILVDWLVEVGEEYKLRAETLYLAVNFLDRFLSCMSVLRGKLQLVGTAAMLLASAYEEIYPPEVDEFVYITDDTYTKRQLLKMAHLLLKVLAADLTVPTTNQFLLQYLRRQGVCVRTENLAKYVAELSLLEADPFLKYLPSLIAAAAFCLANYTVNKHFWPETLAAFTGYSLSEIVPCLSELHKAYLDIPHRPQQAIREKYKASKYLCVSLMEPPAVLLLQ
Substitution	normalised enrichment score
PKPLKKLVFDIEG [R8V]	0.334
PKPLKKLRFDLEG [I11L]	0.668
PKPLKKLRHDIEG [F9H]	0.225
PKPLKKGRFDIEG [L7G]	0.193
PKSLKKLRFDIEG [P3S]	0.662
PKPLKKLRFDIEM [G13M]	0.286
WKPLKKLRFDIEG [P1W]	0.296
PKPLKKLRFDREG [I11R]	-0.0314
KKPLKKLRFDIEG [P1K]	0.173
LKPLKKLRFDIEG [P1L]	0.00604
AKPLKKLRFDIEG [P1A]	0.43
PKPLQKLRFDIEG [K5Q]	0.416
PKPLKKLRFDIEW [G13W]	0.232
PKPLKKLRFDIRG [E12R]	-0.0671
PKPLKKLRFNIEG [D10N]	0.402
PKPIKKLRFDIEG [L4I]	0.447
PKPLKKLRFDIEF [G13F]	0.293
PKPLKKFRFDIEG [L7F]	0.35
PKPLKKLRFDTEG [I11T]	-0.175
PKPLNKLRFDIEG [K5N]	0.219
PIPLKKLRFDIEG [K2I]	0.567
PKPLKKLRFDIEA [G13A]	0.24
PKPLKKLRFDICG [E12C]	0.183
PWPLKKLRFDIEG [K2W]	-0.0476
PKPLKMLRFDIEG [K6M]	0.203

Study 2
Target: RING finger protein unkempt homolog, zinc fingers 1-6, GST-SBP tag (UNK, Homo sapiens, UniProt Q9C0B0, residues 30-357)
Technique: RNA Bind-n-Seq
Molecule type: RNA
Medium: in vitro
Tested at: not given
Notes: RNA with constant flanks, human and mouse sites, ends assumed
Relative to: input RNA pool
Direction: higher = stronger binding
All sequences stand within: GGGAGUUCUACAGUCCGACGAUC … CAACAGAGGAUUGAGCAUCA
Target sequence (chain): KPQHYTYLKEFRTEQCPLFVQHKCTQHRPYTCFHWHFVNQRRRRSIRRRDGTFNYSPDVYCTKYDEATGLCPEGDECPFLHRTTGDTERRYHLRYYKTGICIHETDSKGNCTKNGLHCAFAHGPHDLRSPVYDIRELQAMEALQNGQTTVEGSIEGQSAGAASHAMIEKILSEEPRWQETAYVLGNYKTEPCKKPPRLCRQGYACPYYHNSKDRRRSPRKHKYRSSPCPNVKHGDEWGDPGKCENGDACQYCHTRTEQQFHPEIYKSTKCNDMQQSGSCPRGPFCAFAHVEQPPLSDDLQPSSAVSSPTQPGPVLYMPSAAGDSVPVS
Oligonucleotide	bound/input enrichment [ratio]
GGCUUCCGUCGAGCAUGAGCAAGAUGGCAGCCUCCGAGACGGUUAGGCUACGGCUUCAAUUUGACUACCCGCCGCCGGCCACUCCACACUGCACGGUCUUCUGGCUUCUGGUGGACCUGA	0.0341
AGGAGUAGCUCUGUUUCCACUAUUGACACUGCCCGGCUGAUUCAAGCUUUUGGCCAUGAAAGAGUAUGCUUGUCACCCAGACGAAUUAAAUUAUAUAGCAGCAUCACCAACCAACAGAGG	0.603
GAGGAGGAUAAACCCAGGCAGGUGGAGGUGCAUCAAGAGCCCGGGGCAGCGGUGCCCAGAGGCCAGGAGGCCCCUGAAGGCAAGGCCAGGGAGACGGUGGAGAAUCUGCCUCCCCUGCCU	0.217
AAGGGCAGGCUGGCCGCGGCCGGUUUGGUCUGGGGACCACGGGCUGGAGCAGGUGGAAAUUUAAAAUUGUUUACAGUCAACACUGUUUCCAGCCAUGGGUUUGUCUCCAUCUGCUCCUGC	0.0991
UCUUGAAACCUAAACUCUGUGCUUGUAGAAGACUGUAACCUUUUUGUCUUUUUUUUUUUUUUUUUAAACAAACAAAAAAACCAACCUCCAGCUCCAGUGGCUGUGACUGGCCCCAGUGAU	0.58
AAAACGCCAAUUCGCAACAGAGCCUUUUACAUGGAAGAAGGGGCCCCCUACUGCGAGCGAGACUAUGAGAAGAUGUUUGGCACAAAAUGUCGAGGCUGUGACUUCAAGAUUGAUGCUGGA	0.13
CUGGCACUCUAUCAGAUAUAUUAAUUUUUUAAUGUAGAUGUAAUUUUAAAAAUGAAUGGCUACUUUACACGUUUAACUAGGGUUUUACUAUAUAUGUGUACAUAUGUAUAUAUAUAUAUA	8.14
CAUAUGCAAAAUCUGUUUCUACUACAAUGUUAUUUUUACUAAUGCCUUAUUGUUGCACUCUUUUUGAAAUAUCCUGCAGUGAAUAUAUGAAUCAAUUUGGGCUUAAAACUGAAAGCCAGU	0.443

Study 3
Target: PABPC1L2, full length, GST fusion (mouse, UniProt A0ABA7IW68)
Technique: RNAcompete
Molecule type: RNA
Medium: in vitro
Tested at: 20 nM
Notes: 7-mer, probes averaged, single round
Relative to: mean of 7-mers
Direction: higher = stronger binding
Target sequence (chain): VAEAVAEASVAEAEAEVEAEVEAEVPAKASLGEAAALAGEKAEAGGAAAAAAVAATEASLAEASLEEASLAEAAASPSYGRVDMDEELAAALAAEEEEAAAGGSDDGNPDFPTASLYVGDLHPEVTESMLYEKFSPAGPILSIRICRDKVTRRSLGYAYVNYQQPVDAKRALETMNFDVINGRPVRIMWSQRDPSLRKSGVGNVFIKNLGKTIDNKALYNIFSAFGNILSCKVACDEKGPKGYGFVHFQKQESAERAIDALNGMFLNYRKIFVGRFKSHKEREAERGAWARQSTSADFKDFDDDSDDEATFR
Oligonucleotide	7-mer Z-score
UUCUUCG	-0.434
UAAAGCA	0.713
GUCCCGC	-0.353
GGACCAG	0.26
AUUCCGG	-0.15
GUCAAGU	-0.329
ACCAGCC	-0.309
AUUGAAU	-0.0627
GAAUCCG	-0.235
ACUUUCU	-0.286
GGCUCUU	-0.257
GUCGCGG	-0.161
CUCUAGG	-0.106
CGUGCGG	-0.0174

Study 4
Target: ABI1, truncated, D143A, DHFR fusion (Arabidopsis thaliana)
Technique: DHFR PCA, deep sequencing
Medium: yeast
Notes: methotrexate growth selection, single substitutions
With: (+)-ABA 2500 µM
Relative to: wild-type fitted maximum
Direction: higher = stronger binding
Starting sequence: PYL1, truncated, DHFR fusion (Arabidopsis thaliana); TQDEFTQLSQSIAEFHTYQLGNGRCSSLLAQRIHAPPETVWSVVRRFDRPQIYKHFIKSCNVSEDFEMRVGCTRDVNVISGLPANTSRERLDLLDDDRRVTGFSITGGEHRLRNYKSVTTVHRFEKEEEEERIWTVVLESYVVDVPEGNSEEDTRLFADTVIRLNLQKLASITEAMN
Substitution	relative binding score
S27V	52.2%
T101S	98.9%
N61E	102%
N22Y	94.8%
S11V	105%
E14N	86.7%
V44P	-17.5%
R155M	94.1%
H110G	89.5%
T135K	9.26%
A30G	96.2%
H34Q	91.3%
G23P	81.9%
N77I	93.4%
I133H	110%
F157D	1.04%
L169G	2.15%

Study 5
Target: Histone acetyltransferase KAT6A, both winged helices, GST fusion (KAT6A, Homo sapiens, UniProt Q92794, residues 1-181)
Technique: protein binding microarray
Molecule type: double-stranded DNA, one strand shown
Medium: in vitro
Tested at: not given
Notes: 8-mer, flanks averaged, mean of 2 arrays, mostly near background
Relative to: not given
Direction: higher = stronger binding
Residues (chain): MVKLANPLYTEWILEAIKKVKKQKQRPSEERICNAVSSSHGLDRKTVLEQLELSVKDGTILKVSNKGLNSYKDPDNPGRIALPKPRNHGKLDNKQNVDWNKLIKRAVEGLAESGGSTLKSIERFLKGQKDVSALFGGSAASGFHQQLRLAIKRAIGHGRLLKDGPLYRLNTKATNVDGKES
Oligonucleotide	E-score
CGATAACG	0.0449
ATGGGGCC	-0.136
CAGGAGTC	-0.126
CATATTGA	-0.167
AAGGGTCT	-0.0739
CTACACAC	-0.153
AATTGCGG	0.263
ACCCATTA	-0.222
GATGGACA	0.0111
TCCTTCAA	-0.152
CAAAGCCC	-0.0744
AATAACGT	0.0114
ACATGGTG	-0.0184
CCATCAGG	-0.157
ATCGTGCA	-0.0103
GTGAGAAC	-0.0219
CGCAAAAA	0.197
ATTTGATA	-0.143
CATGGAGG	-0.12
ACTGAAGA	-0.0315
ATCCGTTG	0.157
AACCTAGC	-0.12
AACACCTT	-0.0741
ATTAAAGC	-0.021
AAGAAGTG	-0.149
